{"data": "Results of several laboratories", "B1": "human bleomycin hydrolase; sequence looked up; chain MSSSGLNSEKVAALIQKLNSDPQFVLAQNVGTTHDLLDICLKRATVQRAQHVFQHAVPQEGKPITNQKSSGRCWIFSCLNVMRLPFMKKLNIEEFEFSQSYLFFWDKVERCYFFLSAFVDTAQRKEPEDGRLVQFLLMNPANDGGQWDMLVNIVEKYGVIPKKCFPESYTTEATRRMNDILNHKMREFCIRLRNLVHSGATKGEISATQDVMMEEIFRVVCICLGNPPETFTWEYRDKDKNYQKIGPITPLEFYREHVKPLFNMEDKICLVNDPRPQHKYNKLYTVEYLSNMVGGRKTLYNNQPIDFLKKMVAASIKDGEAVWFGCDVGKHFNSKLGLSDMNLYDHELVFGVSLKNMNKAERLTFGESLMTHAMTFTAVSEKDDQDGAFTKWRVENSWGEDHGHKGYLCMTDEWFSEYVYEVVVDRKHVPEEVLAVLEQEPIILPAWDPMGALAE", "B2": "human USP15; sequence looked up; chain AEGGAADLDTQRSDIATLLKTSLRKGDTWYLVDSRWFKQWKKYVGFDSWDKYQMGDQNVYPGPIDNSGLLKDGDAQSLKEHLIDELDYILLPTEGWNKLVSWYTLMEGQEPIARKVVEQGMFVKHCKVEVYLTELKLCENGNMNNVVTRRFSKADTIDTIEKEIRKIFSIPDEKETRLWNKYMSNTFEPLNKPDSTIQDAGLYQGQVLVIEQKNEDGTWPRGPSTPKSPGASNFSTLPKISPSSLSNNYNNMNNRNVKNSNYCLPSYTAYKNYDYSEPGRNNEQPGLCGLSNLGNTCFMNSAIQCLSNTPPLTEYFLNDKYQEELNFDNPLGMRGEIAKSYAELIKQMWSGKFSYVTPRAFKTQVGRFAPQFSGYQQQDCQELLAFLLDGLHEDLNRIRKKPYIQLKDADGRPDKVVAEEAWENHLKRNDSIIVDIFHGLFKSTLVCPECAKISVTFDPFCYLTLPLPMKKERTLEVYLVRMDPLTKPMQYKVVVPKIGNILDLCTALSALSGIPADKMIVTDIYNHRFHRIFAMDENLSSIMERDDIYVFEININRTEDTEHVIIPVCLREKFRHSSYTHHTGSSLFGQPFLMAVPRNNTEDKLYNLLLLRMCRYVKISTETEETEGSLHCCKDQNINGNGPNGIHEEGSPSEMETDEPDDESSQDQELPSENENSQSEDSVGGDNDSENGLCTEDTCKGQLTGHKKRLFTFQFNNLGNTDINYIKDDTRHIRFDDRQLRLDERSFLALDWDPDLKKRYFDENAAEDFEKHESVEYKPPKKPFVKLKDCIELFTTKEKLGAEDPWYCPNCKEHQQATKKLDLWSLPPVLVVHLKRFSYSRYMRDKLDTLVDFPINDLDMSEFLINPNAGPCRYNLIAVSNHYGGMGGGHYTAFAKNKDDGKWYYFDDSSVSTASEDQIVSKAAYVLFYQRQDTFSGTGFFPLDRETKGASAATGIPLESDEDSNDNDNDIENENCMHTN", "note": "Lines come from different studies, so protocols differ. ± gives the spread as reported."}
{"Molecule": "durvalumab", "test system": "human cancer patients, plasma", "setting": "intravenous, 1500 mg, cycle 4 day 1, with: adavosertib 150 mg twice daily", "measurement": "Ctrough geometric mean", "value": "114 µg/mL"}
{"Molecule": "B1 (human bleomycin hydrolase)", "target or system": "PP6C (human)", "test": "co-immunoprecipitation, IP-MS", "test system": "CYB5R4 knockout cells", "setting": "concentration not given", "scale": "relative to: CYB5R4 knockout over parental", "measurement": "log2 fold change", "value": -0.77}
{"Molecule": "ACEEQNPWARYLEWLFPTETLLLEL", "test": "ex vivo fluorescence imaging", "test system": "peptide, BALB/c mice, 4T1 tumour-bearing, 4T1 tumour", "setting": "intravenous, 5 nmol, 48 h post-injection", "scale": "higher = more uptake", "measurement": "mean fluorescence intensity", "value": "517 ± 129 a.u."}
{"Molecule": "insulin degludec", "test system": "human", "setting": "subcutaneous, 0.4 IU/kg, 3 FC level, single dose, reference formulation", "measurement": "Tmax, median", "value": "14 h"}
{"Molecule": "colistin", "target or system": "Escherichia coli", "test": "broth microdilution", "test system": "clinical isolate RKI-No_602/16", "measurement": "MIC", "value": "16 µg/mL"}
{"Molecule": "ACEQNPIYWARYADWLFTTPLLLLDLALLVDADEGT", "test": "ex vivo fluorescence imaging", "test system": "peptide, BALB/c mice, 4T1 tumour-bearing, liver", "setting": "intravenous, 5 nmol, 48 h post-injection", "scale": "higher = more uptake", "measurement": "mean fluorescence intensity", "value": "357 ± 24.5 a.u."}
{"Molecule": "insulin icodec", "test system": "Chinese type 2 diabetes patients", "setting": "subcutaneous, log AUC(tau) vs log dose", "measurement": "dose-proportionality slope", "value": 0.83}
{"Molecule": "pegcetacoplan", "test": "measured: skin and subcutaneous disorders", "test system": "patients with PNH", "setting": "dose not given, phase Ib trial", "measurement": "number of TEAEs", "value": 36}
{"Molecule": "adrenomedullin", "test": "RP-HPLC", "test system": "HALO RP-amide column", "setting": "25 µM, formic acid/acetonitrile, 25 min gradient", "measurement": "retention time", "value": "5.46 min"}
{"Molecule": "ACDDQNPWRAYLDLLFPTDTLLLDLLW", "test": "ex vivo fluorescence imaging", "test system": "peptide, BALB/c mice, 4T1 tumour-bearing, 4T1 tumour", "setting": "intravenous, 5 nmol, 2 h post-injection", "scale": "higher = more uptake", "measurement": "mean fluorescence intensity", "value": "4660 ± 720 a.u."}
{"Molecule": "B2 (human USP15)", "target or system": "PP6C (human)", "test": "co-immunoprecipitation, IP-MS", "test system": "CYB5R4 knockout cells", "setting": "concentration not given", "scale": "relative to: CYB5R4 knockout over parental", "measurement": "log2 fold change", "value": -0.59}
{"Molecule": "Neuropeptide Y", "test": "RP-HPLC", "test system": "HALO RP-amide column", "setting": "25 µM, formic acid/methanol, 25 min gradient", "measurement": "retention time", "value": "18.1 min"}
{"Molecule": "insulin aspart", "test": "ELISA after PEG precipitation, measured: free insulin aspart", "test system": "human, type 1 diabetes, serum", "setting": "subcutaneous, dose not given, least squares mean", "measurement": "Cmax", "value": "0.318 nM"}
{"Molecule": "insulin", "test": "LC-MS/MS", "test system": "human serum pool", "setting": "high pool, two freeze-thaw cycles, with: C-peptide 8.70 ng/mL", "measurement": "concentration", "value": "0.0097 µg/mL"}
{"Molecule": "insulin icodec", "test system": "human moderate hepatic impairment (Child-Pugh B), serum", "setting": "subcutaneous, 1.5 U/kg single dose", "scale": "relative to: moderate impairment over normal function", "measurement": "AUC(0-inf) ratio", "value": 1.15}
{"Molecule": "KRRRC", "target or system": "HUVEC", "test": "ICP-OES, measured: rhenium", "test system": "peptide", "setting": "concentration not given, 24 h, 37 °C", "measurement": "cellular uptake", "value": "0.237 ppm"}
{"note": "For quick reference, copied from above:"}
{"Molecule": "adrenomedullin", "test": "RP-HPLC", "test system": "HALO RP-amide column", "setting": "25 µM, formic acid/acetonitrile, 25 min gradient", "measurement": "retention time", "value": "5.46 min"}
{"Molecule": "insulin aspart", "test": "ELISA after PEG precipitation, measured: free insulin aspart", "test system": "human, type 1 diabetes, serum", "setting": "subcutaneous, dose not given, least squares mean", "measurement": "Cmax", "value": "0.318 nM"}
